Published values collected from several papers.
Each line is one published result; not all experiments were run side by side. Values joined by “and” are separate records of one study, mostly repeats; a detail may differ.
rep main protease: Replicase polyprotein 1ab, main protease (rep, Severe acute respiratory syndrome coronavirus 2, UniProt P0DTD1)
rep papain-like protease: Replicase polyprotein 1ab, papain-like protease (rep, Severe acute respiratory syndrome coronavirus 2, UniProt P0DTD1)

C=CCC(NC(=O)C1CN(C(=O)C(CC(=C)C)NC(=O)C=C)CC1c1cccc(C(F)(F)F)c1)C(=O)NC (stereo not drawn) — IC50 (rep main protease): > 100 µM
Oc1ccccc1/C=N/NC(=S)NC1CCCCC1 — IC50 (rep main protease; enzyme activity, inhibitor, FRET): 17.6 µM
O=C(Oc1cncc(Cl)c1)c1cccs1 — IC50 (rep main protease; enzyme activity, inhibitor): 0.088 µM
Cc1cccc2c3c(ccc12)C1=C(C(=O)C3=O)[C@@H](C)CO1 — IC50 (rep papain-like protease; enzyme activity, inhibitor, fluorescence): < 100 µM and 68 µM
CSCc1cn(CC(=O)N2CCc3sccc3C2)nn1 — IC50 (rep main protease; enzyme activity, inhibitor): > 100 µM
COC(=O)Cn1[se]c2ccccc2c1=O — IC50 (rep main protease; enzyme activity, inhibitor): 0.167 µM
CN(C)CCCCNC(=O)C[C@H](Cc1ccc(F)cc1)NC(=O)[C@@H](Cc1ccc(Cl)cc1Cl)NC(=O)C(N)Cc1ccccc1C(N)=O (stereo partly drawn) — IC50 (rep main protease; enzyme activity, inhibitor, fluorescence): 0.3 µM
CC(C)=CCc1c(O)ccc(C(=O)C2C(c3c(O)cc(O)c4c(=O)c(CC=C(C)C)c(-c5ccc(O)cc5O)oc34)C=C(C)CC2c2ccc(O)cc2O)c1O (stereo not drawn) — IC50 (Replicase polyprotein 1ab, methyltransferase (rep, Severe acute respiratory syndrome coronavirus 2, UniProt P0DTD1); enzyme activity, inhibitor; pH 7.5): 13.3 µM
CCC(C(=O)Nc1ccccc1F)n1cccc2nc(SCc3ccc(F)cc3)nc1-2 (stereo not drawn) — IC50 (rep papain-like protease; enzyme activity, inhibitor): 6.08 µM
O=C(c1cccc(-n2cccc2)c1)N1CCCN(S(=O)(=O)c2ccc(F)cc2)CC1 — IC50 (rep main protease; enzyme activity, inhibitor): > 100 µM
COC(=O)[C@H](C)NC(=O)c1ccccc1[Se][Se]c1ccccc1C(=O)N[C@@H](C)C(=O)OC — IC50 (rep main protease; enzyme activity, inhibitor): 1.06 µM
Cc1ccc(OCCN(C)C)cc1C(=O)N[C@H](C)c1cc(-c2cnn(C)c2)cc(-c2cnn(C(F)F)c2)c1 — IC50 (rep papain-like protease; enzyme activity, inhibitor, FRET): 0.0983 µM
CC(C)=CCc1c(O)ccc(-c2coc3cc(O)cc(O)c3c2=O)c1O — IC50 (Replicase polyprotein 1ab, nsp12 with nsp7/nsp8 (rep, Severe acute respiratory syndrome coronavirus 2, UniProt P0DTD1); RdRp polymerase activity, inhibitor; SARS-CoV-2): 47.3 µM
C[C@@H](Cc1ccc(O)c(O)c1)[C@@H](C)Cc1ccc(O)c(O)c1 — IC50 (rep main protease; enzyme activity, inhibitor, FRET): 6.06 µM
Cc1oc2nc1C(=O)N[C@](C)(C(=O)NCCc1ccc(N3CCCCC3)cc1)c1nc(c(C)o1)C(=O)N[C@](C)(C(=O)NCCc1ccc(N3CCCCC3)cc1)c1nc(c(C)o1)C(=O)N[C@]2(C)C(=O)NCCc1ccc(N2CCCCC2)cc1 — IC50 (rep main protease; enzyme activity, inhibitor): 15.3 µM
